Measurements of several laboratories.
Parts stem from different laboratories: compare values within a part only. Changes are numbered by the printed parent chain.

Series 1
Target: CCND2, cyclin fold, Cln2 fusion (human)
Technique: yeast growth competition, sequencing
Sample: yeast
Notes: weak parent motif
Reference: not given
Reading: higher = stronger binding
Starting sequence: E2F1 docking peptide (human); PPVKRRLDLETDH
Variant	normalised enrichment score
PPVKRRYDLETDH [L7Y]	0.14
PPVKRRLDLEKDH [T11K]	0.588
PPVKRRLDFETDH [L9F]	1.75
PPVKWRLDLETDH [R5W]	0.262
PPYKRRLDLETDH [V3Y]	0.279
PPVKRRLMLETDH [D8M]	0.29
PPVKRRLDLETFH [D12F]	0.428
PPVKRRLELETDH [D8E]	-0.221
PPVKRRLDLEYDH [T11Y]	0.68
WPVKRRLDLETDH [P1W]	0.388
PPVKRRSDLETDH [L7S]	0.0621
PPVKRRLDLERDH [T11R]	0.175
PPVKARADLETDH [R5A L7A]	-0.119
PPVKRRLDLETDA [H13A]	0.0821

Series 2
Substance: PhoQ, residues 284 288 289 292 302 303 ALSMDL
Technique: Sort-seq
Item: YFP reporter
Sample: E. coli
Notes: PhoQ-PhoP variant library
Added: 10 µM Mg2+
Reference: high Mg2+ state
Reading: higher = stronger signaling
target	fold induction
PhoP, residues 12 14 15 18 19 LHTVL (Escherichia coli, UniProt P23836)	2.08
PhoP, residues 12 14 15 18 19 NQCAL (Escherichia coli, UniProt P23836)	6.21
PhoP, residues 12 14 15 18 19 TQAML (Escherichia coli, UniProt P23836)	1.57

Series 3
Target: Ras GTPase-activating protein-binding protein 1, full length (G3BP1, Homo sapiens, UniProt Q13283)
UniProt Q13283, sequence (whole entry, looked up): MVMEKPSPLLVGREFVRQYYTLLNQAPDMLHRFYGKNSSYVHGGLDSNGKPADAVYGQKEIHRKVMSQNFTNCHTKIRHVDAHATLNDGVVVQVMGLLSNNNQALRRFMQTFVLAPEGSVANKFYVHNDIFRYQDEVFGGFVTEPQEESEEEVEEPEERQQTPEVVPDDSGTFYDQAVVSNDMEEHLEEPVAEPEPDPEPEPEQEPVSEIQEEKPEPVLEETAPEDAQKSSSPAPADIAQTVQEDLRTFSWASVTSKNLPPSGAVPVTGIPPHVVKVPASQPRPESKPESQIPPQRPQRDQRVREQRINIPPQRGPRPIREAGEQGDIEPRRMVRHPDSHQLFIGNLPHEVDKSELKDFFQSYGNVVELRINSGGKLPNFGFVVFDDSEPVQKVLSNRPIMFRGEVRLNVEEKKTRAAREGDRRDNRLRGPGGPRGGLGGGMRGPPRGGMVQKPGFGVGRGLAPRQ
Technique: RNA Bind-n-Seq
Molecule type: RNA
Sample: in vitro
Tested at: 200 nM
Notes: whole 134-nt RNA, ends assumed
Added: 150 mM LiCl
Reference: input library
Reading: higher = stronger binding
All molecules: 7-deaza-guanosine replaces G
Shared flanks, not repeated: GGGAGUUCUACAGUCCGACGAUC … UGGAAUUCUCGGGUGUCAAGG
Oligonucleotide	log2 enrichment
GUCCUGUGCUACACAUCGUAUGUACCGAAUCGGGAAAAAAAGGGAAAGGGAAAAAGGGAAAGUAUUAUGUUACGCCGUUCGGAUCUGCAC	-0.0878
ACUUUGUCAGAUAUUGCUAGGGACCAGUGAGAUAGAUAAUCCAAAAAUAAUAAUUUGACUUUGGUUGAGUAUGUCAUUACCACAGUGUUA	-2.11
UGGCCCUGGUGACAUGCGGGGAGGAAGAGGUGGCCUCAUGGAUCGUGGUGGUCCCGGUGGAAUGUUCAGAGGUGGCCGUGGUGGAGACAG	-0.00738
UCUAUUCAUAAGAACCCCAACACAUCGGAGCCCCAACACCUGUUGGUGAUGAAGGGCGCCCCAGAAAGGAUCCUAGACCGUUGCAGCUCU	1.68
CUGUGCUACACAUCGUAUGUACCGAAUCGGGAAAAAAAGGAAAAAAAGGGGAAAAAAAGGGGAAAGUAUUAUGUUACGCCGUUCGGAUCU	0.212
ACCAUGCAGGUGGGCAUCUUUGGGAAGUGGGGCAAGGGGGGGAUAGGGAGGGGGGUAACACCUUGGGAACAGGUGGUCCCAGGUCGUUUC	0.288
GUCCUGUGCUACACAUCGUAUGUACCGAAUCGGGAAAGGGUUUUUUUGGGUUUUUGGGAAAGUAUUAUGUUACGCCGUUCGGAUCUGCAC	-1.79
CCUCAAGUCCUGUGCUACACAUCGUAUGUACCGAAUCGGAGGGGAGGGGAGGAAAGUAUUAUGUUACGCCGUUCGGAUCUGCACUUCCAG	-0.119
CAAGUCCUGUGCUACACAUCGUAUGUACCGAAUCGGGGUGGGGUGGGGUUUGGGGAAAGUAUUAUGUUACGCCGUUCGGAUCUGCACUUC	-0.679
CUCAAGUCCUGUGCUACACAUCGUAUGUACCGAAUCGGAAAGGUUUUUGGAGGAAAGUAUUAUGUUACGCCGUUCGGAUCUGCACUUCCA	0.0189
AAGUCCUGUGCUACACAUCGUAUGUACCGAAUCGGGCCCCGGGCCCCGGGCCCCGGGAAAGUAUUAUGUUACGCCGUUCGGAUCUGCACU	-2.02

Series 4
Target: RING finger protein unkempt homolog, zinc fingers 1-6, SBP tag (UNK, Homo sapiens, UniProt Q9C0B0, residues 30-357)
UniProt Q9C0B0, sequence (30-357, looked up): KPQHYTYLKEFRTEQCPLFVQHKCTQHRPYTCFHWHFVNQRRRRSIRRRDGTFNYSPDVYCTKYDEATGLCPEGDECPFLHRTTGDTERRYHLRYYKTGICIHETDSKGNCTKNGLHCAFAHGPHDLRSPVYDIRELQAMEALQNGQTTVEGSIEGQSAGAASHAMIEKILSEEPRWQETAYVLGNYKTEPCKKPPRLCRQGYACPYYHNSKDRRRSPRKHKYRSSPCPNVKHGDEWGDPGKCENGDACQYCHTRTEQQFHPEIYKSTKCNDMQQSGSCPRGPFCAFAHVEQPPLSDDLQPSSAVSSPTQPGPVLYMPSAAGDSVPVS
Technique: RNA Bind-n-Seq
Molecule type: RNA
Sample: in vitro
Tested at: 100 nM
Notes: RNA with constant flanks, vertebrate orthologous sites, ends assumed
Reference: input RNA pool
Reading: higher = stronger binding
Shared flanks, not repeated: GGGAGUUCUACAGUCCGACGAUC … CAACAGAGGAUUGAGCAUCA
Oligonucleotide	bound/input enrichment
CAGCUGAUUCACUCAUUGGAAGAGCUGCACAUAUAGCUGUUCUUGACUCAGAAAUAUUUUUAGAAAAGUUCUUUUUGGUUGCUGCCCUGAAAUAUUUCCAGUAGGAUAAAAACAUUGUUA	0.739 ratio
AAAGUUCCCCAUUGUCACUGAGAACCACCAAAUUUGACUUUCACAUUUGGUCUCAGAAUUUAGGUUCCUGCCCUGUUGUUUUUCUUUCUUCCUCUUUAAACAAACAAACAGUUUUCAGAA	0.405 ratio
GUGUUUUGUACAGGGCAUUCUCUGUACUAGUUUGUUGUGGUUAUAAAACAAUUAGCAGAAUAGCCUACAUUUGUAUUUAUUUUCUAUUCCAUACUUCUGCCCAUGUUGUUUUCUCUCAGU	1.47 ratio
CUCCCUCCCAGGACUGAGCAGUGGGGCCUGGGCCCACUGGCCACAUCAGCCAGGCCAUUUUAGCUCUUUUUUUUUUUUAAACAGUGCCCUUGUUAUCCUGUAUAUAAGUGGAGAUUUGGA	1.94 ratio
GUUAGGUCAUGACCCUUAUAGGCUAGGUCAUGAUGCCUAUAGAUUAGGGCAAGACCCUUAUAGAUUAGGCCAUGAUCCCUACAGACUUACUCCUGAUCCCUAUAGGAUGUCACCUAGACC	0.394 ratio
GCAUAUGCCGCUAUCACCAGAAGCAAACUACCACUGUUUUCAUGUCAUUCUGAGCCUUUAGUGUUUCCCCUACCCUUUCCACGACUGUCCAUGGGAUAGUUUUCCUUCUGACACUUGAUU	0.988 ratio
UCAGAGCAGCAUAGGCUGUUGAGCUGUGGAAAAAUGAGCUUUGCAUUUUUUAUAUUUAAAUAGGAUACUUUUAUAUGAUGGGUGCUCUGAGUGUGAAUGCAGCACUCUCCCUUUCAGAGC	1.35 ratio
UAAUGCAAUGGUUGAAGGCUCUGAGCUCAAAAAGGUUCGGUCCAACUCUAGAGUAUAUCACCGAUACUUUCUUUUAGAUGCAGAUAUGCAGUCCCUGCAUUGGGAACCUUCAAAGAAGGA	0.424 ratio

A few entries again (series 2):
target	fold induction
PhoP, residues 12 14 15 18 19 LHTVL (Escherichia coli, UniProt P23836)	2.08
PhoP, residues 12 14 15 18 19 NQCAL (Escherichia coli, UniProt P23836)	6.21
PhoP, residues 12 14 15 18 19 TQAML (Escherichia coli, UniProt P23836)	1.57
